{"data": "Assay results gathered from unrelated publications", "note": "Every numbered part comes from another study and shows a few of its results, in no order. Changes are numbered by the printed parent chain."}
{"data": "Study 1", "target": "Centromere-binding protein 1, full length, N-terminal tag (CBF1, Saccharomyces cerevisiae, UniProt P17106, residues 1-351)", "method": "protein-binding microarray", "molecule type": "double-stranded DNA, one strand shown", "medium": "in vitro", "concentration": "0.8 µM", "notes": "whole 60-bp probe, no competitor", "reading": "higher = stronger binding", "constant ends, left off below": "… GTCTTGATTCGCTTGACGCTGCTG", "chain of UniProt P17106 (whole entry, looked up)": "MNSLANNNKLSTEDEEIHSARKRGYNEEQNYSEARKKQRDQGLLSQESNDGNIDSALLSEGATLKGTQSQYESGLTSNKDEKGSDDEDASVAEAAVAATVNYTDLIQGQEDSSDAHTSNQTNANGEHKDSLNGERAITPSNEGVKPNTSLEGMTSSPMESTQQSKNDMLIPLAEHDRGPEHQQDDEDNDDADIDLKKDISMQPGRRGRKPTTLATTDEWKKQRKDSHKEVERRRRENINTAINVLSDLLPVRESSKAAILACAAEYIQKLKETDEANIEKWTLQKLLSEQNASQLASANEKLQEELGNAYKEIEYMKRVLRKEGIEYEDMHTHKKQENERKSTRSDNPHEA"}
{"Oligonucleotide": "CCTAACTACTATAGTTACGTGGTATAGCTTCGTACA", "fluorescence intensity [a.u.]": 503}
{"Oligonucleotide": "CCTAACTACTATAGTGGTCAGACATAGCTTCGTACA", "fluorescence intensity [a.u.]": 509}
{"Oligonucleotide": "GAAGTTAATCGACCCCACGTCCAGGGTTTTTCCTAG", "fluorescence intensity [a.u.]": 467}
{"Oligonucleotide": "GAAACCGAGTGAGTCAGCGTGATCGGCCTCATTTAG", "fluorescence intensity [a.u.]": 616}
{"Oligonucleotide": "GAATCACCAAGCTATCTGGTGTCACATTGTGAATAG", "fluorescence intensity [a.u.]": 738}
{"Oligonucleotide": "TGTACGAAGCTATACTTCGTGGTTATAGTAGTTAGG", "fluorescence intensity [a.u.]": 500}
{"Oligonucleotide": "CTACGAACGGAAGCGTGCGTGCTCTGAGTTTTTTTC", "fluorescence intensity [a.u.]": 544}
{"Oligonucleotide": "CTATAAAACTCTTCTGATGTCCTTTATGGTTTATTC", "fluorescence intensity [a.u.]": 512}
{"Oligonucleotide": "GAATCTGTGAAATATGTCACCTCGAACTTACCTTAG", "fluorescence intensity [a.u.]": 499}
{"Oligonucleotide": "CTACTTCTGTGCCATCACGGTACTCTCTTCTATTTC", "fluorescence intensity [a.u.]": 565}
{"Oligonucleotide": "CTAGCTTTTTGGACGCACGTTTTAGTTTCACTGTTC", "fluorescence intensity [a.u.]": 700}
{"Oligonucleotide": "CTAGCAGCACCGTTTCACATGTCCGTCTCTTTTTTC", "fluorescence intensity [a.u.]": 560}
{"Oligonucleotide": "CTATATTTCTTACGTGGTGAAAATAAGATCTTATTC", "fluorescence intensity [a.u.]": 561}
{"Oligonucleotide": "GAAAACTCGTCAAGTCACGTTTGGTGGACGGCCTAG", "fluorescence intensity [a.u.]": 1260}
{"Oligonucleotide": "CTAGTATTGACTAACTTCATGACACAACCACTGTTC", "fluorescence intensity [a.u.]": 538}
{"Oligonucleotide": "CTATTTCTAGTTTATCACGTCTCATAATCACTGTTC", "fluorescence intensity [a.u.]": 693}
{"data": "Study 2", "target": "CCNB3, cyclin fold, Cln2 fusion (human)", "method": "yeast growth competition, sequencing", "medium": "yeast", "notes": "strong parent motif", "reference": "not given", "reading": "higher = stronger binding", "starting sequence": "PKN2 docking peptide (human); VSAVRKLDFSDTM"}
{"Variant": "A3P", "normalised enrichment score": 0.78}
{"Variant": "A3K", "normalised enrichment score": 0.0261}
{"Variant": "S2G", "normalised enrichment score": 1.58}
{"Variant": "T12H", "normalised enrichment score": 1.7}
{"Variant": "D8S", "normalised enrichment score": 1.02}
{"Variant": "F9G", "normalised enrichment score": 0.231}
{"Variant": "S2D", "normalised enrichment score": 0.793}
{"Variant": "S2E", "normalised enrichment score": 0.369}
{"Variant": "D8F", "normalised enrichment score": 1.43}
{"Variant": "R5K", "normalised enrichment score": 0.584}
{"Variant": "S2V", "normalised enrichment score": 0.989}
{"Variant": "R5M", "normalised enrichment score": 0.168}
{"Variant": "L7M", "normalised enrichment score": 0.0759}
{"Variant": "S2W", "normalised enrichment score": 1.59}
{"Variant": "F9K", "normalised enrichment score": -0.124}
{"Variant": "S10H", "normalised enrichment score": 1.29}
{"Variant": "A3C", "normalised enrichment score": 2.89}
{"Variant": "S10V", "normalised enrichment score": 0.411}
{"Variant": "F9Y", "normalised enrichment score": 0.227}
{"Variant": "A3G", "normalised enrichment score": 0.278}
{"Variant": "D11H", "normalised enrichment score": 1.51}
{"data": "Study 3", "target": "CREB5, bZIP domain (human)", "method": "DHFR protein complementation", "medium": "yeast", "notes": "single substitutions, most at no-binding floor", "reference": "wild-type JUN-FOS pair", "reading": "higher = stronger binding", "starting sequence": "JUN, bZIP domain (human); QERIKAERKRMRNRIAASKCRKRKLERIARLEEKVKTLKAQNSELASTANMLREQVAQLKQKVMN; partner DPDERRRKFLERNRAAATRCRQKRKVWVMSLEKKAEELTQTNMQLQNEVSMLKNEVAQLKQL"}
{"Variant": "A57I", "binding fitness [natural log]": -0.454}
{"Variant": "E32F", "binding fitness [natural log]": -0.804}
{"Variant": "A40D", "binding fitness [natural log]": -0.233}
{"Variant": "R53Y", "binding fitness [natural log]": -1.25}
{"Variant": "L31R", "binding fitness [natural log]": -1.35}
{"Variant": "E54S", "binding fitness [natural log]": -0.535}
{"Variant": "S47L", "binding fitness [natural log]": -0.35}
{"Variant": "A29L", "binding fitness [natural log]": -0.512}
{"Variant": "A49R", "binding fitness [natural log]": -0.167}
{"Variant": "N42P", "binding fitness [natural log]": -1.38}
{"Variant": "N42V", "binding fitness [natural log]": -1.07}
{"Variant": "E33Q", "binding fitness [natural log]": -0.509}
{"Variant": "E54M", "binding fitness [natural log]": -0.548}
{"Variant": "I28M", "binding fitness [natural log]": -0.314}
{"Variant": "Q58H", "binding fitness [natural log]": -0.367}
{"Variant": "R30M", "binding fitness [natural log]": -0.2}
{"Variant": "E33C", "binding fitness [natural log]": -0.584}
{"Variant": "S47E", "binding fitness [natural log]": -0.124}
{"Variant": "L45R", "binding fitness [natural log]": -1.36}
{"data": "Study 4", "target": "Ras GTPase-activating protein-binding protein 1, full length (G3BP1, Homo sapiens, UniProt Q13283)", "method": "RNA Bind-n-Seq", "molecule type": "RNA", "medium": "in vitro", "concentration": "200 nM", "notes": "whole 134-nt RNA, ends assumed", "with": "150 mM LiCl", "reference": "input library", "reading": "higher = stronger binding", "each molecule": "7-deaza-guanosine replaces G", "constant ends, left off below": "GGGAGUUCUACAGUCCGACGAUC … UGGAAUUCUCGGGUGUCAAGG", "chain of UniProt Q13283 (whole entry, looked up)": "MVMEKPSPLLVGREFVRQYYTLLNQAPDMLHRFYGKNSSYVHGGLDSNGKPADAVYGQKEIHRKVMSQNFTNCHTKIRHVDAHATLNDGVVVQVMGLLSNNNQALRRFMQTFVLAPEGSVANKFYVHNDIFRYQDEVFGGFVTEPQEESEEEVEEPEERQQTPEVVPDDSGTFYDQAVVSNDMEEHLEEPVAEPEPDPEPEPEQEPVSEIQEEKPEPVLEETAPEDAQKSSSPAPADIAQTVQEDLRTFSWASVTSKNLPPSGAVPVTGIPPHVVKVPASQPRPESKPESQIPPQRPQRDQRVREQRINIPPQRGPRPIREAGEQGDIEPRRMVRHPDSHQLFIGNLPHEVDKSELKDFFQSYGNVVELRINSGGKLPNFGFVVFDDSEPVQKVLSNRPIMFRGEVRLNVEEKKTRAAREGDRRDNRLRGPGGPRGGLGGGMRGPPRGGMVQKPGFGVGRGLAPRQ"}
{"Oligonucleotide": "UGCCUACGUAAUUUUUUAUCUUGAAAUAUUCAAAAUUAGGAGCCAGAUGACCAAGAUGCUCCAGAUGAACAUGAGUCGCCUCCACCUGAA", "log2 enrichment": -0.29}
{"Oligonucleotide": "CCUGUGCUACACAUCGUAUGUACCGAAUCGGGUUUUUUUGGGAAAAAGGGAAAAAAAGGGAAAGUAUUAUGUUACGCCGUUCGGAUCUGC", "log2 enrichment": -1.13}
{"Oligonucleotide": "GUCCUGUGCUACACAUCGUAUGUACCGAAUCAAAUUUUUAAACCCAAAUUUUUUUAAAAAAGUAUUAUGUUACGCCGUUCGGAUCUGCAC", "log2 enrichment": -2.01}
{"Oligonucleotide": "GCAGGAAGUAAAAACAAAUGGAAAUGCUUCGGAGAGUGGCAGGGGUGGGGGUUGCUAAGGAAAGGGUGGGAUGGGAGUGGGUAAAGAGUU", "log2 enrichment": 0.116}
{"Oligonucleotide": "UACUAUCAAACAAUCGGAAACCACGCGUCCUACUACAAAGAUGCUCUGCGGUUUUUGGGCUGUGUUGACAUCAAGGAUCUACCAGGUAAC", "log2 enrichment": -1.9}
{"Oligonucleotide": "UGGCCCUGGUGGCAUGCGGGGAGGAAGAGGUGGCCUCAUGGAUCGUGGUGGUCCCGGUGGAAUGUUCAGAGGUGGCCGUGGUGGAGUCAG", "log2 enrichment": 0.177}
{"Oligonucleotide": "AGUCCUGUGCUACACAUCGUAUGUACCGAAUCGGGGAAAAAGGGGUGGGGUUUGGGGAAAGUAUUAUGUUACGCCGUUCGGAUCUGCACU", "log2 enrichment": -0.768}
{"Oligonucleotide": "ACCAUACAGGUGGGCAUCUUUGGGAAGUGGGGCAAGGGGGGGAUAGGGAGGGGGGUAACACUUUGGGAACAGGUGGUCCCAGGUCGUUUC", "log2 enrichment": 0.431}
